{"data": "Experimental data gathered from unrelated publications", "TDP1": "Tyrosyl-DNA phosphodiesterase 1 (TDP1, Homo sapiens, UniProt Q9NUW8)", "note": "Each line is one published result; not all experiments were run side by side. ± gives the spread as reported.", "sequence of UniProt Q9NUW8 (whole entry, looked up)": "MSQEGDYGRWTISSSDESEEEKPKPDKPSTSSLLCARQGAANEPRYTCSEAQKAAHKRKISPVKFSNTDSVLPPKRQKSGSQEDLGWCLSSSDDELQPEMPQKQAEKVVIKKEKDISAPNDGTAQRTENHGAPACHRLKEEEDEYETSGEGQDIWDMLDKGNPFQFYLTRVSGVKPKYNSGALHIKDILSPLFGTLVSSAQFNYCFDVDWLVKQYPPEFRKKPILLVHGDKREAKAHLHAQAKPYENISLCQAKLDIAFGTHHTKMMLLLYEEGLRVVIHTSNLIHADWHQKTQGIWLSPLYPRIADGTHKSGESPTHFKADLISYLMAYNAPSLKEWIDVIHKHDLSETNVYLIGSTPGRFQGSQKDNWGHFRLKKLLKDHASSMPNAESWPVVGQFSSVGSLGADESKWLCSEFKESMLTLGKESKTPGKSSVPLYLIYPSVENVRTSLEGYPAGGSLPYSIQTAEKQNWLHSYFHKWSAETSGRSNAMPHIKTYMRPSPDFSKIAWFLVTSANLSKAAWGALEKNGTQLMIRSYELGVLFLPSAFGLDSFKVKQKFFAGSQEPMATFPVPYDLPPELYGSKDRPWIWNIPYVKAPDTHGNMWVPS"}
{"SMILES": "CNS(=O)(=O)Nc1nccc(Cc2c(C)c3ccc(Oc4ncccc4F)cc3oc2=O)c1F", "target or system": "MSTO-211H", "assay": "cell viability", "conditions": "7 days", "measurement": "IC50", "value": "214 nM"}
{"SMILES": "O=C(O)c1ccc(Nc2c(-c3ccc(CON=CC4(c5ccccc5Cl)CCOCC4)cc3)nc3cc(-c4ccccc4)ccn23)cc1", "target or system": "TDP1", "assay": "enzyme activity, inhibitor", "conditions": "100 µM, unpurified compound", "measurement": "inhibition", "value": "30.1%"}
{"SMILES": "COc1ccc(C(=O)CCc2cc(C(CCc3ccc(O)cc3OC)c3ccc(O)cc3)c(O)cc2OC)cc1 (racemic)", "system": "human blood", "conditions": "10 µM, added: A23187", "measurement": "12-HETE level", "value": "10300 ± 4320 pg/mL"}
{"SMILES": "Nc1ncc(-c2cc(-c3cnn(CC(F)(F)F)c3)ncc2F)nc1C(=O)NC1CNCC(F)C1 (stereo not drawn)", "target or system": "AURKA", "assay": "KINOMEscan", "conditions": "1 µM", "how to read": "relative to: DMSO control", "measurement": "remaining binding", "value": "78%"}
{"SMILES": "C=CC(=O)Nc1cccc(Cn2ncc3cnc(Nc4cnn(CCOC)c4)nc32)c1", "target or system": "GRK3 human", "assay": "binding, KINOMEscan", "conditions": "100 nM", "how to read": "lower = stronger binding", "measurement": "percent of control", "value": "91%"}
{"SMILES": "CCN(CC)CC(=O)Nc1cccc(-n2cc(-c3ccc4ccc(-c5cn(-c6cccc(NC(=O)CN(CC)CC)c6)nn5)cc4c3)nn2)c1", "target or system": "RCC4", "assay": "PCR angiogenesis array, item: CCL11", "conditions": "5 x IC50, 6 h, normoxia", "how to read": "relative to: untreated", "measurement": "fold regulation", "value": 1.38}
{"SMILES": "C=CC(=O)N1[C@@H](c2ccc3c(c2)OCO3)c2[nH]c3ccccc3c2C[C@H]1C(=O)N1CCN(C)CC1", "target or system": "CCNE1 WT-3xFLAG:CDK2 complex", "assay": "co-IP TMT proteomics, item: CCP110", "system": "HEK-293T", "conditions": "20 µM, 6 h", "how to read": "relative to: DMSO", "measurement": "log2 fold change", "value": 0.0566}
{"SMILES": "COCC1CN(C2CCN(c3cc(OC)c(Nc4ncc(Br)c(Nc5ccc6c(c5P(C)(C)=O)OCCO6)n4)cc3C)CC2)C1", "assay": "RECIST 1.1", "system": "advanced EGFR-mutant NSCLC patients", "conditions": "10 mg once daily", "measurement": "objective response rate", "value": "0%"}
{"SMILES": "C/C=C(/C)C(=O)O[C@@H]1C=C(C)CC[C@]2(O)[C@@H](C(C)C)CC(=O)[C@]12C", "target or system": "Helicobacter pylori", "assay": "microbial growth, broth dilution", "conditions": "0.24 µg/mL", "measurement": "inhibition", "value": "0%"}
{"SMILES": "Cn1ncc2cc(-c3cncc(Cl)c3N3CCC4(CCNC4=O)CC3)ccc21", "target or system": "LS174T", "assay": "gene expression, microarray, item: FAM65C mRNA", "conditions": "concentration not given, 4 h", "how to read": "relative to: untreated cells", "measurement": "log2 fold change", "value": -2.88}
{"SMILES": "c1ccc(-c2n[nH]cc2-c2ccnc3ccccc23)nc1", "target or system": "MCK1 (Candida albicans)", "assay": "kinase binding, MIB/MS competition", "system": "Candida albicans lysate", "conditions": "10 µM", "how to read": "relative to: DMSO", "measurement": "log2 fold change", "value": -0.08}
{"SMILES": "COc1cc(O)ccc1CCC(c1ccc(O)cc1)c1cc2c(c(C)c1O)OC(c1ccc(O)cc1)CC2 (mixture of isomers)", "system": "human blood", "conditions": "10 µM, added: A23187", "measurement": "15-HETE level", "value": "397 ± 192 pg/mL"}
{"SMILES": "COCCOCCOCCNC(=O)Cc1cc(CC(=O)N[C@H]2C[C@H]3C(=O)Nc4cc(OCCOCCOCCOC)cc(n4)C(=O)N4CCC[C@H]4C(=O)Nc4cc(OCCOCCOCCOC)cc(n4)C(=O)N4CCC[C@H]4C(=O)Nc4cc(OCCOCCOCCOC)cc(n4)C(=O)N3C2)cc(CC(=O)N[C@H]2C[C@H]3C(=O)Nc4cc(OCCOCCOCCOC)cc(n4)C(=O)N4CCC[C@H]4C(=O)Nc4cc(OCCOCCOCCOC)cc(n4)C(=O)N4CCC[C@H]4C(=O)Nc4cc(OCCOCCOCCOC)cc(n4)C(=O)N3C2)c1", "assay": "anion binding, ITC", "system": "water", "conditions": "298 K, stoichiometry fixed at 1.00, added: sodium chloride", "measurement": "TΔS", "value": "22.4 ± 3 kJ mol^–1"}
{"SMILES": "Cc1ncsc1-c1ccc(C(C)NC(=O)C2CC(O)CN2C(=O)C(NC(=O)CCCCCCCCCCN2CCCC(Nc3ncc(Cl)c(Nc4ccccc4S(=O)(=O)C(C)C)n3)C2)C(C)(C)C)cc1 (stereo not drawn)", "target or system": "22Rv1", "assay": "RNA-seq, item: LRRC27 mRNA", "conditions": "concentration not given", "how to read": "relative to: DMSO", "measurement": "log2 fold change", "value": -1.57}
{"SMILES": "COC1CN([C@H]2CC[C@H]([C@@]3(C)Oc4c(Cl)cc(C(=O)NCc5c(SC)cc(C)[nH]c5=O)c(C)c4O3)CC2)C1", "assay": "RNA-seq, item: DZIP1", "system": "human, whole blood", "conditions": "dose not given, 24 h", "how to read": "relative to: pretreatment baseline", "measurement": "log2 fold change", "value": 6.52}
{"SMILES": "C=C(NC(=O)c1csc(-c2nc3c(cc2O)-c2nc(cs2)C(=O)NC(C(C)O)C(=O)NC(=C(C)OC)c2nc(cs2)C(=O)NC2c4nc(cs4)C(=O)NC(COC(=O)c4c5c6c(cccc6n4O)COC(=O)C(OC4CC(C)(O)C(N(C)C)C(C)O4)C2OC5)c2nc-3cs2)n1)C(N)=O (stereo not drawn)", "target or system": "Streptococcus pneumoniae", "system": "-4, immunocompromised mice, lung infection, lung", "conditions": "4 mg/kg/day three times daily, 24 h post-dose", "measurement": "bacterial load", "value": "5.49 log CFU/g"}
{"SMILES": "CN1CCCNC(=O)c2cccc(c2)C(=O)NCCCN(C)CCCNc2cccc3c2C(=O)c2cccc(c2C3=O)NCCC1", "target or system": "SAS", "assay": "RNA-Seq, item: ATAD1 mRNA", "conditions": "1 µM, 6 h", "how to read": "relative to: untreated cells", "measurement": "log2 fold change", "value": -1.22}
{"SMILES": "Cc1ccc(S(=O)(=O)n2cccc2C=NOCc2ccc3nc(-c4ccccc4)c(Nc4ccc(C(=O)O)cc4)n3c2)cc1 (mixture of isomers)", "target or system": "TDP1", "assay": "enzyme activity, inhibitor", "conditions": "100 µM, unpurified compound", "measurement": "inhibition", "value": "27.4%"}
{"note": "For quick reference, copied from above:"}
{"SMILES": "Cc1ncsc1-c1ccc(C(C)NC(=O)C2CC(O)CN2C(=O)C(NC(=O)CCCCCCCCCCN2CCCC(Nc3ncc(Cl)c(Nc4ccccc4S(=O)(=O)C(C)C)n3)C2)C(C)(C)C)cc1 (stereo not drawn)", "target or system": "22Rv1", "assay": "RNA-seq, item: LRRC27 mRNA", "conditions": "concentration not given", "how to read": "relative to: DMSO", "measurement": "log2 fold change", "value": -1.57}
{"SMILES": "COC1CN([C@H]2CC[C@H]([C@@]3(C)Oc4c(Cl)cc(C(=O)NCc5c(SC)cc(C)[nH]c5=O)c(C)c4O3)CC2)C1", "assay": "RNA-seq, item: DZIP1", "system": "human, whole blood", "conditions": "dose not given, 24 h", "how to read": "relative to: pretreatment baseline", "measurement": "log2 fold change", "value": 6.52}
{"SMILES": "C=C(NC(=O)c1csc(-c2nc3c(cc2O)-c2nc(cs2)C(=O)NC(C(C)O)C(=O)NC(=C(C)OC)c2nc(cs2)C(=O)NC2c4nc(cs4)C(=O)NC(COC(=O)c4c5c6c(cccc6n4O)COC(=O)C(OC4CC(C)(O)C(N(C)C)C(C)O4)C2OC5)c2nc-3cs2)n1)C(N)=O (stereo not drawn)", "target or system": "Streptococcus pneumoniae", "system": "-4, immunocompromised mice, lung infection, lung", "conditions": "4 mg/kg/day three times daily, 24 h post-dose", "measurement": "bacterial load", "value": "5.49 log CFU/g"}
